Assay results gathered from unrelated publications.
Lines come from different studies, so protocols differ. ± marks the error that the study gave.
Technique: steady-state kinetics
B1: protein Y93C (Thermus thermophilus, UniProt Q5SKR5); chain MSAPKPFVIGIAGGTASGKTTLAQALARTLGERVALLPMDHYYKDLGHLPLEERLRVNYDHPDAFDLALYLEHAQALLRGLPVEMPVYDFRACTRSPRRTPVRPAPVVILEGILVLYPKELRDLMDLKVFVDADADERFIRRLKRDVLERGRSLEGVVAQYLEQVKPMHLHFVEPTKRYADVIVPRGGQNPVALEMLAAKALARLARMGAA
B2: ltaE H126F/H83F (Escherichia coli, UniProt P75823); chain MIDLRSDTVTRPSRAMLEAMMAAPVGDDVYGDDPTVNALQDYAAELSGKEAAIFLPTGTQANLVALLSHCERGEEYIVGQAAFNYLFEAGGAAVLGSIQPQPIDAAADGTLPLDKVAMKIKPDDIFFARTKLLSLENTHNGKVLPREYLKEAWEFTRERNLALHVDGARIFNAVVAYGCELKEITQYCDSFTICLSKGLGTPVGSLLVGNRDYIKRAIRWRKMTGGGMRQSGILAAAGIYALKNNVARLQEDHDNAAWMAEQLREAGADVMRQDTNMLFVRVGEENAAALGEYMKARNVLINASPIVRLVTHLDVSREQLAEVAAHWRAFLAR
B3: vioC (Streptomyces vinaceus, UniProt Q6WZB0); chain MTESPTTHHGAAPPDSVATPVRPWSEFRLTPAEAAAAAALAARCAQRYDETDGPEFLLDAPVIAHELPRRLRTFMARARLDAWPHALVVRGNPVDDAALGSTPVHWRTARTPGSRPLSFLLMLYAGLLGDVFGWATQQDGRVVTDVLPIKGGEHTLVSSSSRQELGWHTEDAFSPYRADYVGLLSLRNPDGVATTLAGVPLDDLDERTLDVLFQERFLIRPDDSHLQVNNSTAQQGRVEFEGIAQAADRPEPVAILTGHRAAPHLRVDGDFSAPAEGDEEAAAALGTLRKLIDASLYELVLDQGDVAFIDNRRAVHGRRAFQPRYDGRDRWLKRINITRDLHRSRKAWAGDSRVLGQR
B4: POLK W214Y/W392H (Homo sapiens, UniProt Q9UBT6); chain MGLNDNKAGMEGLDKEKINKIIMEATKGSRFYGNELKKEKQVNQRIENMMQQKAQITSQQLRKAQLQVDRFAMELEQSRNLSNTIVHIDMDAFYAAVEMRDNPELKDKPIAVGSMSMLSTSNYHARRFGVRAAMPGFIAKRLCPQLIIVPPNFDKYRAVSKEVKEILADYDPNFMAMSLDEAYLNITKHLEERQNYPEDKRRYFIKMGSSVENDNPGKEVNKLSEHERSISPLLFEESPSDVQPPGDPFQVNFEEQNNPQILQNSVVFGTSAQEVVKEIRFRIEQKTTLTASAGIAPNTMLAKVCSDKNKPNGQYQILPNRQAVMDFIKDLPIRKVSGIGKVTEKMLKALGIITCTELYQQRALLSLLFSETSHHYFLHISLGLGSTHLTRDGERKSMSVERTFSEINKAEEQYSLCQELCSELAQDLQKERLKGRTVTIKLKNVNFEVKTRASTVSSVVSTAEEIFAIAKELLKTEIDADFPHPLRLRLMGVRISSFPNEEDRKHQQ
B5: BaiA1 (Clostridium scindens, UniProt P07914); chain MKLVQDKITIITGGTRGIGFAAAKLFIENGAKVSIFGETQEEVDTALAQLKELYPEEEVLGFAPDLTSRDAVMAAVGTVAQKYGRLDVMINNAGITMNSVFSRVSEEDFKNIMDINVNGVFNGAWSAYQCMKDAKQGVIINTASVTGIYGSLSGIGYPTSKAGVIGLTHGLGREIIRKNIRVVGVAPGVVDTDMTKGLPPEILEDYLKTLPMKRMLKPEEIANVYLFLASDLASGITATTISVDGAYRP
B6: LodA (Marinomonas mediterranea, UniProt F2JXJ3); chain MALSVHPSIGVARLGNANTDNFVLNPMEIGGLPYEHDVDLKPTTTVVNFKDEAGCIRRQGQVFKVFGASNEELTLDSPNVKNIEWTVHLANKKAAWYEFRELNGNLLYGRDNSYSARGVPWRNASKTASSERQSLIIDLGPRSVSGVMATVEISINNIPETYLHPSYPSGELLQGSKHFESLGTLRTDSQGRLIVLGGYGFAGGNTDLSGYGGGDDWYDDISDGSVTCVVTYSDDSSETSTAWMVVGSPDFAPEIVNISTLSDTCFDVGVRNFDLVPDMYDSATGHYKSDYVANFDRDILPIIQRISQYQWVSNVQSMSGFFSFQFDYRDGSAANKANRMKYYNYFRQLDNKVIGDYDQPQQVLMSSEVEGDILPLMPMNSGSNSVSSSNFYDLTDNVVEKFLALDATQLFLLGQWAEGEFTAGPADDYPVSDMDTASIGNCVGLPMCPGIEMTWSLQNPVIYKDAYQIKHYQDKAYFDVNGLTPERDECEEETGCEPGDLTKRMACPWQADFFNCTIQTVNFSEPSVNKASQTETVTSRTHYEWGNLPAGVSVPDQSSVSATKNVDEKVPLPPAYYSYWWPPQSPWDVLTGELDTEGQLHSHLPAGQQINYARGINSYSQMVEHWSALAFIRDRNQNNDGFPFFTETERNHELFDFKEVLVGQVTGNSEDNETSLPVFFINANKESLEGKGTKKGKLMASYFEERAFSKVRSSNIRPRSGTRMRG
B7: cyc1 F96Y (Streptomyces coelicolor, UniProt Q9K499); chain MHAFPHGTTATPTAIAVPPSLRLPVIEAAFPRQLHPYWPKLQETTRTWLLEKRLMPADKVEEYADGLCYTDLMAGYYLGAPDEVLQAIADYSAWFYVWDDRHDRDIVHGRAGAWRRLRGLLHTALDSPGDHLHHEDTLVAGFADSVRRLYAFLPATWNARFARHFHTVIEAYDREFHNRTRGIVPGVEEYLELRRLTFAHWIWTDLLEPSSGCELPDAVRKHPAYRRAALLSQEFAAWYNDLCSLPKEIAGDEVHNLGISLITHHSLTLEEAIGEVRRRVEECITEFLAVERDALRFADELADGTVRGKELSGAVRANVGNMRNWFSSVYWFHHESGRYMVDSWDDRSTPPYVNNEAAGEK
B8: iodotyrosine deiodinase (Haliscomenobacter hydrossis, UniProt F4KU78); chain MKQKPAFIPYAGAQFEPEEMLSKSAEYYQFMDHRRTVREFSNRAIPLEVIENIVMTASTAPSGAHKQPWTFVVVSDPQIKAKIRQAAEKEEFESYNGRMSNEWLEDLQPFGTDWHKPFLEIAPYLIVVFRKAYDVLPDGTQRKNYYVQESVGIACGFLLAAIHQAGLVALTHTPSPMNFLQKILQRPENERPFLLVPVGYPAEGAMVPDLQRKDKAAVMVVY
B9: Hpo (Pseudomonas putida, UniProt F8G0M1); chain MDHVSFTEICLRQLKMSGVHEGERLIVLTQGHERLAYADAFMAAGQRLGAEMYHMRLPSPLPSNGWAVGVTGLADLPGAVEALKNCDMLIDCVFLLFSAEQFEIQAAGTRILTAVEPPELLARMLPFPELREKVSIAAELVENAKDMRITSPHGTDITYKLNTYPTIAEYACTDTPGRWDHWPSGFVFTGGDDDGVDGTIVVAPGDVLLPQNLMVREPITYTIEKGWIVDIRGGLEAQIVNSYMDSFNDPRGKGMSHVGWGMNPHAKWHNFVPGQFTGGMGMELRSFYGNVMFSTGPNNELGGSNDTACHLDIPMRNCSLFLDDTPVVIDGDIVVKEIQLVQR
B10: enzyme (Tetranychus urticae, UniProt T1KUK4); chain MNPETMNENGKSLKILFTALFGPGHLNACLGIGSLLRKRGHQIYFAHFPRHRATIEKHGFLFISLLDYAEPEFPIVDMLPDIGIIAKFAFERMHKLTPLELFRHASGKHTFAGMVNGSKGENYAMMKIVKEYKPDVCLADYLFNMPWMFTVDCPVIPVKSVNPIELYNGPPALTGCSIHDPPSVREEIEQLARKSELELESELEKLFAHFNVPLVSYNYAQQLGIYIYPGPLDYKELGSPKENWVRLDSSIRSTEISNFELPEKLKDKPGKLIYVSMGSLASAVTELLTMILTPLANSPHRFIVSTGPNGDSIKLYDNMWGDKFINQVALLPKVDLFITHGGSNSLIEGLTAGKPLIAIPQFGDQLDNAQRIADLGLGVRLNLHEFSGEKLLKAIEDVLNDEKINANVARVSEELKKSDSKDKVISLIEKLARDKKL
UniProt A8M783, sequence (whole entry, looked up): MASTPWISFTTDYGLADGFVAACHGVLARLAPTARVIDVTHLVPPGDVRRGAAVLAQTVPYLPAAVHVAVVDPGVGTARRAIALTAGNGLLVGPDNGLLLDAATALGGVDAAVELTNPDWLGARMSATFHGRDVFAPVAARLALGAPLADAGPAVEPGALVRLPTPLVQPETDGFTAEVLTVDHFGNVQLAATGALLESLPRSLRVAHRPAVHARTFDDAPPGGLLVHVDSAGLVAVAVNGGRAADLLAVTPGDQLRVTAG
UniProt Q92UV7, sequence (whole entry, looked up): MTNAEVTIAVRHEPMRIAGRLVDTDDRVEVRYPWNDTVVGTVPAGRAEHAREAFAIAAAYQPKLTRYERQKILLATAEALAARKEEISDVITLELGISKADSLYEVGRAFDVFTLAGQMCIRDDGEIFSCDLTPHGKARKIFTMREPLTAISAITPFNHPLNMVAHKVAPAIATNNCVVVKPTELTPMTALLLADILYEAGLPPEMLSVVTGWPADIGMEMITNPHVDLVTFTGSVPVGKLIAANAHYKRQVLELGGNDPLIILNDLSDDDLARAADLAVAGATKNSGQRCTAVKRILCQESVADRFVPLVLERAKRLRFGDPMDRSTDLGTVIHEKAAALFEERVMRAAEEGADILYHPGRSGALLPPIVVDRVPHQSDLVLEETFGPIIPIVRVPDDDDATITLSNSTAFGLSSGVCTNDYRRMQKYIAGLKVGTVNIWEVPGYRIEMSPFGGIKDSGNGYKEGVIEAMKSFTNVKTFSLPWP
UniProt P52429, sequence (whole entry, looked up): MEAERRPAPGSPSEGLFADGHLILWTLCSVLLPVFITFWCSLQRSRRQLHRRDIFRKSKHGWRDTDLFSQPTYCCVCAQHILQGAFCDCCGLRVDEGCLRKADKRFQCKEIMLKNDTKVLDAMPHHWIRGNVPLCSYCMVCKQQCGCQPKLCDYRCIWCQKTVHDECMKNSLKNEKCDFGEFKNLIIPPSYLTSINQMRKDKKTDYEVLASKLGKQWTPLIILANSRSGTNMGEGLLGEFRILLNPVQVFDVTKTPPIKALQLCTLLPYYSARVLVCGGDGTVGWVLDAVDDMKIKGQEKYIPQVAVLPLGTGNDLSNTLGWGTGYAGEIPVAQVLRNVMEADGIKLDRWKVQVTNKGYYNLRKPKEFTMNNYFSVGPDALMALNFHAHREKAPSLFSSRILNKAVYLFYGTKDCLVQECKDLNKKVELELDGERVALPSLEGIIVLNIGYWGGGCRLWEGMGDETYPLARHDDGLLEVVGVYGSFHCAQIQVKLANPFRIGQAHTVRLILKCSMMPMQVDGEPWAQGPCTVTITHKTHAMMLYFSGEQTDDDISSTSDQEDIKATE

B1 (protein Y93C)  kcat (Nc1ccn([C@@H]2O[C@H](CO)[C@@H](O)[C@H]2O)c(=O)n1; pH 7.2, 25 °C, KCl 100 mM, together with: ATP 100–200 µM): 1.9 ± 0.4 s⁻¹
B2 (ltaE H126F/H83F)  kcat (C[C@H](O)[C@H](N)C(=O)O; pH 7, 30 °C, potassium phosphate 20 mM, retro-aldol cleavage, together with: PLP 500 µM): 0.0283 s⁻¹
B3 (vioC)  kcat (N=C(N)NCCC[C@H](N)C(=O)O; pH 8, 30 °C, apparent, together with: alpha-ketoglutarate 1.0 mM): 43.5 ± 3.27 s⁻¹
Ptb (Listeria monocytogenes, UniProt Q8Y7B7)  kcat (CCCCC(=O)SCCNC(=O)CCNC(=O)[C@H](O)C(C)(C)COP(=O)(O)OP(=O)(O)OC[C@H]1O[C@@H](n2cnc3c(N)ncnc32)[C@H](O)[C@@H]1OP(=O)(O)O; pH 7.5, 25 °C, apparent): 676 ± 19 s⁻¹
B4 (POLK W214Y/W392H)  kcat (Nc1ccn([C@H]2C[C@H](O)[C@@H](COP(=O)(O)OP(=O)(O)OP(=O)(O)O)O2)c(=O)n1; pH 7.5, 23 °C, MgCl2 5 mM, together with: G template): 0.017 ± 0.003 s⁻¹
B5 (BaiA1)  kcat (C[C@H](CCC(=O)SCCNC(=O)CCNC(=O)[C@H](O)C(C)(C)COP(=O)(O)OP(=O)(O)OC[C@H]1O[C@@H](n2cnc3c(N)ncnc32)[C@H](O)[C@@H]1OP(=O)(O)O)[C@H]1CC[C@H]2[C@@H]3[C@H](O)C[C@@H]4C[C@H](O)CC[C@]4(C)[C@H]3C[C@H](O)[C@]12C; pH 8.7, 37 °C, together with: NAD+): 1.23 s⁻¹
B6 (LodA)  kcat (NCCCC[C@H](N)C(=O)O; pH 7.5, 25 °C, together with: O2): 0.22 ± 0.04 s⁻¹
B7 (cyc1 F96Y)  kcat (CC(C)=CCC/C(C)=C/CC/C(C)=C/CO[P@@](=O)(O)OP(=O)(O)O; pH 6.5, 30 °C, together with: MgCl2 10 mM): 0.00019 ± 1e-05 s⁻¹
protein (Salinispora arenicola, UniProt A8M783)  kcat (C[S+](CC[C@H](N)C(=O)O)C[C@H]1O[C@@H](n2cnc3c(N)ncnc32)[C@H](O)[C@@H]1O; pH 7.9, 37 °C, apparent): 0.00833 s⁻¹
B8 (iodotyrosine deiodinase)  kcat (Cc1cc(C[C@H](N)C(=O)O)cc(I)c1O; pH 7.4, 25 °C): 0.72 ± 0.1 s⁻¹
pgmB H20A (Lactococcus lactis) (sequence not shown)  kcat (O=P(O)(O)OC[C@H]1O[C@@H](OP(=O)(O)O)[C@H](O)[C@@H](O)[C@@H]1O; pH 7, 25 °C): 0.0197 ± 0.003 s⁻¹
B9 (Hpo)  kcat (Oc1ccc(O)nc1; pH 7.5, 20 °C, together with: O2; Fe2+ 0.025 mM): 12.9 ± 0.6 s⁻¹
LovD A190T/A86V/C40A/C60N/D12G/G275S (Aspergillus terreus)  kcat (CCC(C)(C)C(=O)SCCC(=O)OC; 25 °C, 10% DMSO, together with: 2 mM MJA): 0.031 ± 0.0015 s⁻¹
enzyme (Sinorhizobium meliloti, UniProt Q92UV7)  kcat (O=CCP(=O)(O)O; pH 7.5, 30 °C): 2.2 ± 0.1 s⁻¹
DGKE (Homo sapiens, UniProt P52429)  kcat (CCCCC/C=C\C/C=C\C/C=C\C/C=C\CCCC(=O)O[C@@H](CO)COC(=O)CCCCCCCCCCCCCCCCC; pH 7.5, 25 °C, mixed micelles, surface mole percent, not purified, together with: 0.1 mM ATP; 5 mM MgCl2): 10.2 ± 0.3 s⁻¹
B10 (enzyme)  kcat (O=c1ccn([C@@H]2O[C@H](CO[P@@](=O)(O)O[P@@](=O)(O)O[C@H]3O[C@H](CO)[C@@H](O)[C@H](O)[C@H]3O)[C@@H](O)[C@H]2O)c(=O)[nH]1; pH 7.8): 0.088 ± 0.023 s⁻¹

For quick reference, copied from above:
protein (Salinispora arenicola, UniProt A8M783)  kcat (C[S+](CC[C@H](N)C(=O)O)C[C@H]1O[C@@H](n2cnc3c(N)ncnc32)[C@H](O)[C@@H]1O; pH 7.9, 37 °C, apparent): 0.00833 s⁻¹
B8 (iodotyrosine deiodinase)  kcat (Cc1cc(C[C@H](N)C(=O)O)cc(I)c1O; pH 7.4, 25 °C): 0.72 ± 0.1 s⁻¹
